Measured values collected from several papers.
Each numbered part is a random draw from the data of one study; scales do not carry over between parts. Substitutions count along the parent as printed.

Series 1
Target: CCND2, cyclin fold, Cln2 fusion (human)
Method: yeast growth competition, sequencing
Matrix: yeast
Notes: weak parent motif
Reference: not given
Direction: higher = stronger binding
Starting sequence: MICAL3 docking peptide (human); LQLRRQLSFSEDS; partner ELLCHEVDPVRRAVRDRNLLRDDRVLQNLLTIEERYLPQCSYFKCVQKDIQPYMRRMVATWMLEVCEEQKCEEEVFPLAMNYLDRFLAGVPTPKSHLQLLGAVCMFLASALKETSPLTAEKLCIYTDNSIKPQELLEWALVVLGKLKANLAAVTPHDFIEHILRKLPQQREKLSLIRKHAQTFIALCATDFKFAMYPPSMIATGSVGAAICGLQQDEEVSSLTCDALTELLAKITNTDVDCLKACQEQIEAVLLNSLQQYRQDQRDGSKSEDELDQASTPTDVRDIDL
| Substitution | normalised enrichment score |
| --- | --- |
| Q6P | 0.0256 |
| Q6E | 0.651 |
| F9G | 0.278 |
| Q2R | -0.372 |
| Q6C | 0.433 |
| Q6I | 0.389 |
| L3T | 0.707 |
| Q2H | 0.0967 |
| L3P | 0.45 |
| L7S | -0.427 |
| Q6M | 0.247 |
| Q2D | 0.613 |
| F9A | 0.0299 |
| S8E | 0.16 |
| D12M | 0.692 |
| R4Y | 0.282 |
| L3N | 0.109 |
| L3A | 1.33 |
| S10L | 0.216 |

Series 2
Target: CEP164, C-terminal peptide (human)
Method: DHFR complementation, deep sequencing
Matrix: yeast
Notes: single substitutions, model-inferred values
Reference: wild type
Direction: higher = weaker binding
Starting sequence: PDZK1, PDZ domain 2 (human); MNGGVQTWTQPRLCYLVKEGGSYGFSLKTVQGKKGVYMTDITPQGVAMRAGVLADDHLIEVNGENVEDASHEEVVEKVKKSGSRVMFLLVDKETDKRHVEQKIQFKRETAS; partner HNRVKVYRF
| Substitution | binding free energy change |
| --- | --- |
| G21N | 0.0609 kcal/mol |
| S22T | -0.159 kcal/mol |
| R84Q | -0.051 kcal/mol |
| G63A | 0.344 kcal/mol |
| D40N | 0.638 kcal/mol |
| H57L | -0.521 kcal/mol |
| V85W | 1.81 kcal/mol |
| V61T | 0.837 kcal/mol |
| T7P | -0.0534 kcal/mol |
| V36H | -1.64 kcal/mol |
| E64C | 0.218 kcal/mol |
| N62S | 0.927 kcal/mol |
| N2M | -0.0604 kcal/mol |
| G24I | 1.03 kcal/mol |
| T94P | 0.0763 kcal/mol |
| T42C | 0.278 kcal/mol |

Series 3
Target: Ras GTPase-activating protein-binding protein 1, full length (G3BP1, Homo sapiens, UniProt Q13283)
UniProt Q13283, sequence (whole entry, looked up): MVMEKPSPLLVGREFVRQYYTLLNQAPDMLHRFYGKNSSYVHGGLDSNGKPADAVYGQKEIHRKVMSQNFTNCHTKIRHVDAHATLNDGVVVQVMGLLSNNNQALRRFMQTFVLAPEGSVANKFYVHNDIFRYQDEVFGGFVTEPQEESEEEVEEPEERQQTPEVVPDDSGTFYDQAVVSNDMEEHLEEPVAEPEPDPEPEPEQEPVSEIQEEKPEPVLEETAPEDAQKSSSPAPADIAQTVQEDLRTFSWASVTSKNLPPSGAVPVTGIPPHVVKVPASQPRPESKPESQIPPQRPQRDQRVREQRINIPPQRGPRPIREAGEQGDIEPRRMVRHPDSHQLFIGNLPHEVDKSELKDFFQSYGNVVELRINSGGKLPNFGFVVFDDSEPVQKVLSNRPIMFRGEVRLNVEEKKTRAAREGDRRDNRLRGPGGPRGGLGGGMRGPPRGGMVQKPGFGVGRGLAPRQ
Method: RNA Bind-n-Seq
Molecule type: RNA
Matrix: in vitro
Concentration: 200 nM
Notes: whole 134-nt RNA, ends assumed
With: 150 mM KCl
Reference: input library
Direction: higher = stronger binding
All sequences stand within: GGGAGUUCUACAGUCCGACGAUC … UGGAAUUCUCGGGUGUCAAGG
| Strand | log2 enrichment |
| --- | --- |
| UCCUGUGCUACACAUCGUAUGUACCGAAUCGGGGUUUUUUUGGGGUUUUUGGGGUGGGGAAAGUAUUAUGUUACGCCGUUCGGAUCUGCA | 0.506 |
| UCCUCAAGUCCUGUGCUACACAUCGUAUGUACCGAAUCGGGGCGGGCGGCGGAAAGUAUUAUGUUACGCCGUUCGGAUCUGCACUUCCAG | -0.285 |
| AAGUCCUGUGCUACACAUCGUAUGUACCGAAUCGGGAGGGAAAAAAAGGGUUUGGGAAAGUAUUAUGUUACGCCGUUCGGAUCUGCACUU | 0.177 |
| GUCCUGUGCUACACAUCGUAUGUACCGAAUCGGGGUUUUUUUGGGGUUUGGGGAGGGGAAAGUAUUAUGUUACGCCGUUCGGAUCUGCAC | 0.369 |
| AAGUCCUGUGCUACACAUCGUAUGUACCGAAUCGGGGUGGGGUUUGGGGAAAGGGGAAAGUAUUAUGUUACGCCGUUCGGAUCUGCACUU | 0.981 |
| UAACAUUAGAGGAGGAUCUGAUGGAUAUGGCAGUGGACGUGGAUUUGGGGAUGGCUAUAAUGGGUAUGGAGGAGGACCUGGAGGUGGCAA | 0.593 |
| CAAGUCCUGUGCUACACAUCGUAUGUACCGAAUCGGGGCCGGGGCCGGGGCCGGGAAAGUAUUAUGUUACGCCGUUCGGAUCUGCACUUC | -0.902 |
| AGUCCUGUGCUACACAUCGUAUGUACCGAAUCGGGGAAAAGGAAAAGGGAAAAGGGGAAAGUAUUAUGUUACGCCGUUCGGAUCUGCACU | -0.373 |
| CAAGUCCUGUGCUACACAUCGUAUGUACCGAAUCAAACCCAAACCCAAACCCAAAAAAGUAUUAUGUUACGCCGUUCGGAUCUGCACUUC | -0.614 |
| UCUAUGUAGCAUCCAGGUACUACUUCCUUUGGAAUGUCAGUAUUUAAUCUGAGCAAUGCGAUUGUGGGCAGUGGAAUCCUUGGGCUUUCU | -0.516 |
| CACAGACAACACGCACCCACACAGACACAGAGGGAAGGGGUUGGGAUGGGGACAGGGUGCACAGCAGGGCGGGGUAGGACGCCAGCCCCU | 1.92 |
| CCUCAAGUCCUGUGCUACACAUCGUAUGUACCGAAUCGGUGGGUGGGGUGGGAAAGUAUUAUGUUACGCCGUUCGGAUCUGCACUUCCAG | 1.06 |
| UGUGCUACACAUCGUAUGUACCGAAUCGGGGAAAAAAAGGGGAAAAAAAGGGGAAAAAAAGGAAAGUAUUAUGUUACGCCGUUCGGAUCU | -0.406 |
| UCAAGUCCUGUGCUACACAUCGUAUGUACCGAAUCGGGUGGGAAAGGGUUUGGGAAAGUAUUAUGUUACGCCGUUCGGAUCUGCACUUCC | 0.881 |

Series 4
Target: RNA binding protein fox-1 homolog 2, RRM domain, GST-SBP tag (RBFOX2, Homo sapiens, UniProt O43251-10, residues 100-194)
Method: RNA Bind-n-Seq
Molecule type: RNA
Matrix: in vitro
Concentration: 365 nM
Notes: natural RNA segment, single round, ends assumed
Reference: no-protein control
Direction: higher = stronger binding
All sequences stand within: GGGAGUUCUACAGUCCGACGAUC … UGGAAUUCUCGGGUGCCAA
Target sequence (chain): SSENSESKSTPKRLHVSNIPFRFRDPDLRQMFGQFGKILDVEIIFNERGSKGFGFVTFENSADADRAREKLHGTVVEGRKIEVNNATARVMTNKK
| Strand | RBNS enrichment (R) |
| --- | --- |
| UCAGGUAGCUCUAGGAGCACCAUCCUGCCCUAGCAGAGCCCAGGCCUUGCCCUCAUGAAGCAUCAUUGAAAUAGCAGGAGCAUGUUGAUUUCUUGGUUAGGUUGCAUUAU | 9.29 |
| GGAAUCCUUAGGCUGCCAGGAAGCCAGAGGGGUUUAGAGGUGCUCAGCUUUGAGCCCCAGUAUGCACUAUGCUUAAGCUCUGACGACUCUUGCGUGCAGCGAGGAGGUCC | 1.35 |
| UCAGAUGAUGUGGUUUGUACACUUUCUGUAACCACCAGUGUGGACUUGAAGAAGUGUCCUCAGCAUGUGCAGAGUCUACUACCCAGUACCAGUCGUGAGUCUGCAGGCUC | 2.92 |
| AAAGAUGCCCUAUCCAUGAGAUGCCUUUUCAUCUGCAAACUCUGCAAAAUGUGUCUCAUGUUUCGCAACUCUUUUUUUCCCCCUCGCUCCCGCCUACCCCGUCGGCAUUU | 0.356 |
| UGAAGGGGUCCGGUGCAUUUUAUAUUCUCUUUACAAAGGGCCUCUCUUCCACAGUUAACCAGGUCUCCACCAGGGCUUUCUUUCCAUGUGUUUUUCUUCUUGUUGUUUUA | 0.92 |
| AAAAAAUGGUUUAGAUAUAUUUAUAAUAAACUGACUUAAGAGUUUUCUAUAAGAAGAAAAUUAAGACCACUUAUUUGAAAACAAAGAUGAAAUGUCACCACCCGUUUGCG | 0.564 |
| CACAUACUGAUACCCUGUCUCUCAAAGGGAGAAAAAUUACUUAGGUAUGUCAGCACUUUUGUCCUGUAACUGUAGAUCUGUCUCAAUUGAAGUUAACUCACUAUAUUCGG | 0.806 |
| CUUGAAUGUUAAACAUGGAGUGUGACUGGGACAGCCAUGAGUCAGAAUAUAAAUGAAUGCUUAAACAUUUGAAUACAGAUUCCUCCGGAUUGUUGAAUUCACUCAACUAG | 0.808 |
| GUUGGUCCUUGAUGGCUGUCCCCUCCACCCUACCCCUGAGAAGGGAAGCUGCCCGUUGCUGCUACUGCACCUCACCACCAACUCCCUCAUGGACAGACAGAUCCCUGAUG | 0.694 |
| UUAGGAAGGACCUUCAGUGCAGAUCAGGUGCAGUAAUGGCUUUCUUGUCCCUUAAUUAUUCACCAGACCCAGAAGUUGUACGCAUUUAAUGCUGUUUGUAACCAUGCAUC | 0.48 |
| GUGACAGCUGAGUGUGCUGUGUCUCACACUAUCACCCGUCAUCAGGAUGUCUCUCCUUCCUUACUGUGGCUUCUGCAUGCACUUACACUGUACUUGACGGCUGGCCUCCA | 16.5 |
| UGAGGGUGGCGUCUUUAGAGACAGGCACAUGGGCAGCCCUGUUCCCUUCGCCUCUACUGCGAGGCCUGGGGAGAUGUUGUUUUCAUGCUGCUUCCACCAUCACACUGGGG | 0.255 |

Series 5
Target: XBP1, bZIP domain (human)
Method: DHFR protein complementation
Matrix: yeast
Notes: single substitutions, most at no-binding floor
Reference: wild-type JUN-FOS pair
Direction: higher = stronger binding
Starting sequence: JUN, bZIP domain (human); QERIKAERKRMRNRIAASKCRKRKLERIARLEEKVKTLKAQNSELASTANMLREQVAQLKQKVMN; partner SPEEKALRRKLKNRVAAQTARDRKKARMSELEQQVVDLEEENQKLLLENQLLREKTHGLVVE
| Substitution | binding fitness |
| --- | --- |
| K36V | -1.04 natural log |
| T48H | -0.947 natural log |
| S47Q | -0.484 natural log |
| E33N | -1.2 natural log |
| Q55V | -0.844 natural log |
| A46F | -1.22 natural log |
| K39N | -1.25 natural log |
| M51I | -0.693 natural log |
| K39G | -1.46 natural log |
| S43N | -0.711 natural log |
| T37D | -0.663 natural log |
| A46W | -1.29 natural log |
| V56Y | -0.507 natural log |
| T48C | -1.15 natural log |
| V35E | -1.4 natural log |
| L38I | -1.2 natural log |
| R30F | -0.275 natural log |
| E54A | -1.03 natural log |
| I28G | -1.38 natural log |
| Q55A | -0.645 natural log |
| L52D | -1.48 natural log |
| A46P | -1.38 natural log |

Series 6
Target: Histone acetyltransferase KAT6A, both winged helices, GST fusion (KAT6A, Homo sapiens, UniProt Q92794, residues 1-181)
Method: protein binding microarray
Molecule type: double-stranded DNA, one strand shown
Matrix: in vitro
Concentration: not given
Notes: 8-mer, flanks averaged, mean of 2 arrays, mostly near background
Reference: not given
Direction: higher = stronger binding
Construct (chain): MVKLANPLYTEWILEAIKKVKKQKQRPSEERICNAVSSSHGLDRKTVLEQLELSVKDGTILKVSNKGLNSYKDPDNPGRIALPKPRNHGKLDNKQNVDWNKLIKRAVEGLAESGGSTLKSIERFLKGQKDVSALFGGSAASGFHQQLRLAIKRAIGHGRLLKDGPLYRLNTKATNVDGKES
| Strand | E-score |
| --- | --- |
| TCGGTCCA | -0.1 |
| AGTAAGAC | 0.0495 |
| CCGTTGTC | 0.14 |
| GCGCGACA | 0.295 |
| ACCTCCGA | -0.103 |
| ATCCTCAA | -0.12 |
| AGCATTAA | -0.17 |
| AGTGCACG | 0.197 |
| GTTTGATA | -0.00915 |
| AGGATCTG | -0.114 |
| GCCCTGCC | -0.00175 |
| AACTCCTG | -0.177 |
| GGCGCATA | 0.25 |
| TTGTAAAA | -0.0985 |
| AGGATGGA | -0.11 |
| CGTGAAAG | 0.015 |
